Assay results pooled from the literature.
Parts stem from different laboratories: compare values within a part only.
Sequence of UniProt Q86Y07 (whole entry, looked up): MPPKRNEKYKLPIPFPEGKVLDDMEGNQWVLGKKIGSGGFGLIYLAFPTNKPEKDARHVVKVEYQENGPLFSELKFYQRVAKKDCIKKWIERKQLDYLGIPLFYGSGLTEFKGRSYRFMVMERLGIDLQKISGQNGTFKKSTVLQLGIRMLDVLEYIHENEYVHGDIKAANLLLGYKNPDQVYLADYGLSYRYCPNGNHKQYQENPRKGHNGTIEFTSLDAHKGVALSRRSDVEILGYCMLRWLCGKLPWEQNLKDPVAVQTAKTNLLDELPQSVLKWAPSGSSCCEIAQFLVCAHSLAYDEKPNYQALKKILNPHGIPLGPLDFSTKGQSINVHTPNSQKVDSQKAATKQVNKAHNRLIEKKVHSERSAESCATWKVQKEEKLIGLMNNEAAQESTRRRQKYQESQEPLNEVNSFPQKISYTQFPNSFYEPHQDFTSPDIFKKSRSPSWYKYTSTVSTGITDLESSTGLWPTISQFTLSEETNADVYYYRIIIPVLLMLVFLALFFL
Sequence of UniProt P21709 (whole entry, looked up): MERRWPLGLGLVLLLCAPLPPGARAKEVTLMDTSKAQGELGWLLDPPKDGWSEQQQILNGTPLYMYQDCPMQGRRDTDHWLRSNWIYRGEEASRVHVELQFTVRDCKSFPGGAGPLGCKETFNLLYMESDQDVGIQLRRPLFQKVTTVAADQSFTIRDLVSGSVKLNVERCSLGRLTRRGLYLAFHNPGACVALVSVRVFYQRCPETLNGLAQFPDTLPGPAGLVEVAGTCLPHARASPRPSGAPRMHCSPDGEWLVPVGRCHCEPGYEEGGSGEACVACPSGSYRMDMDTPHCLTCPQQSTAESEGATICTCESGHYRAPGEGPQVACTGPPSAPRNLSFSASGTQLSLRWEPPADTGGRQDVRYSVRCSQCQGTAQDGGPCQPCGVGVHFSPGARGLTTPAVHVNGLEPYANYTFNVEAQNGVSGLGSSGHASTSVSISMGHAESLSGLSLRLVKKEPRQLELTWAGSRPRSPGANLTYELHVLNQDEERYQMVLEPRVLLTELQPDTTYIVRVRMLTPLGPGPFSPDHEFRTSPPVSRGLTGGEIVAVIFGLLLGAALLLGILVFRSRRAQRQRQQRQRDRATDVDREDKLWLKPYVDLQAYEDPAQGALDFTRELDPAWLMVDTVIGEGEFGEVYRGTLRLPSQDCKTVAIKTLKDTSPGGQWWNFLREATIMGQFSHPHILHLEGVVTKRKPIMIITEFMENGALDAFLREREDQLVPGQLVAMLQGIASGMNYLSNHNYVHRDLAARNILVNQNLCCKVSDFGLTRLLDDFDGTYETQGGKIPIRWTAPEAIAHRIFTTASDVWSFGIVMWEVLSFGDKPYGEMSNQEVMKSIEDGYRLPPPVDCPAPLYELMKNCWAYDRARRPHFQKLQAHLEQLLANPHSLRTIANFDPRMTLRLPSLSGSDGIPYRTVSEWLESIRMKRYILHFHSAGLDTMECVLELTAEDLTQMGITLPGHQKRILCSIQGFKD
Sequence of UniProt P51817 (whole entry, looked up): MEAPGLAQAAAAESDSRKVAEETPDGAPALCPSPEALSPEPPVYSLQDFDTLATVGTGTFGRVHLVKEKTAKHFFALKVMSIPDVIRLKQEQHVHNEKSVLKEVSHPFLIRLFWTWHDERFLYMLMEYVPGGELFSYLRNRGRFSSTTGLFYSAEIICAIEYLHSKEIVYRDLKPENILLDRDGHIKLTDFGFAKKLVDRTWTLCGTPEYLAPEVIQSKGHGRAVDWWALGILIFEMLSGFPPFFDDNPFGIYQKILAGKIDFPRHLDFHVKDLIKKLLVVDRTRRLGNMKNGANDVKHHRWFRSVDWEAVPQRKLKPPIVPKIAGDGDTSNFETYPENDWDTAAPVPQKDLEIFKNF
Sequence of UniProt O75116 (whole entry, looked up): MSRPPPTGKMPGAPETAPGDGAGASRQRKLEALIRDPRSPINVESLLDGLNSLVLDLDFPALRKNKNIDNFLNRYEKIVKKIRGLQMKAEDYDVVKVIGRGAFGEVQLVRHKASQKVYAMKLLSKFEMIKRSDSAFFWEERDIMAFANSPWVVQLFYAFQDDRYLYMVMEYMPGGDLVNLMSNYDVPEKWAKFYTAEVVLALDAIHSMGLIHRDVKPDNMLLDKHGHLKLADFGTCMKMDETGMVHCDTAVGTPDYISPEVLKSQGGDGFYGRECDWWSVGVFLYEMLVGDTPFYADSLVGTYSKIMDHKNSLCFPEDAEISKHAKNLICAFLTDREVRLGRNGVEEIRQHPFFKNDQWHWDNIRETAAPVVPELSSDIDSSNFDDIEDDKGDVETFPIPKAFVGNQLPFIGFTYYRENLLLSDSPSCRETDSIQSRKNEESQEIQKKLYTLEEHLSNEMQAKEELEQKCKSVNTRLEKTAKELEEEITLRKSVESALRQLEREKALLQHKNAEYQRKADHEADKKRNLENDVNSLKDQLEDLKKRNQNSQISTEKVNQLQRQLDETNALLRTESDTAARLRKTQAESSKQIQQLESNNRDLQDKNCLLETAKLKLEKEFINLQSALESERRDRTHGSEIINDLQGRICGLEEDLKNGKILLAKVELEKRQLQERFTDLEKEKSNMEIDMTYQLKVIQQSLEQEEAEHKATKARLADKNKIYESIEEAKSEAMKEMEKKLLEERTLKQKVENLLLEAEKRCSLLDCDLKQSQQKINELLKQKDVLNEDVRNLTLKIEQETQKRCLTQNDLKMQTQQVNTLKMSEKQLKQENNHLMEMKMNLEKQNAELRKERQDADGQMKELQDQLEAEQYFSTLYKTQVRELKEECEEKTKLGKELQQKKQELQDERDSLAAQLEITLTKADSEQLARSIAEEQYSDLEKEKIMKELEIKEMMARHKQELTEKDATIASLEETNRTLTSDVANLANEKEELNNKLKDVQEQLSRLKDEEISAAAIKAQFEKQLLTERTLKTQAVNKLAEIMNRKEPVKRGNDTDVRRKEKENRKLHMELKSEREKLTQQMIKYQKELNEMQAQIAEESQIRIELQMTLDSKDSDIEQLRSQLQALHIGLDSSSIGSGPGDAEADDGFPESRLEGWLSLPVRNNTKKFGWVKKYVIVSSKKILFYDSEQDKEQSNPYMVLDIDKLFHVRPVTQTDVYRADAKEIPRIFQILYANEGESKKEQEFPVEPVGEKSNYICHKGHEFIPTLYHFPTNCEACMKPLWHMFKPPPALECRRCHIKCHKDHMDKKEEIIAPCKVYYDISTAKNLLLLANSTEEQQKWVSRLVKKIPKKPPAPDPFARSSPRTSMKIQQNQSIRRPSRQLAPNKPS
Sequence of UniProt Q9HC98 (whole entry, looked up): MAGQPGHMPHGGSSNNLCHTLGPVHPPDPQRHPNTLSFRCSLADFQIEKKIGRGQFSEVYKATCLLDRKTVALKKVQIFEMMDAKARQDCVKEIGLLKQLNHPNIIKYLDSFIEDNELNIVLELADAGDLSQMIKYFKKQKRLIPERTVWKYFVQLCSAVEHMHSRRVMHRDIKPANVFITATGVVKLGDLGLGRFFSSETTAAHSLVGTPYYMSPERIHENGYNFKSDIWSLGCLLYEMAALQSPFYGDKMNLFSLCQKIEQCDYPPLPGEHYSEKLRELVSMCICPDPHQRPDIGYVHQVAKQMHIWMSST
Sequence of UniProt O43293 (whole entry, looked up): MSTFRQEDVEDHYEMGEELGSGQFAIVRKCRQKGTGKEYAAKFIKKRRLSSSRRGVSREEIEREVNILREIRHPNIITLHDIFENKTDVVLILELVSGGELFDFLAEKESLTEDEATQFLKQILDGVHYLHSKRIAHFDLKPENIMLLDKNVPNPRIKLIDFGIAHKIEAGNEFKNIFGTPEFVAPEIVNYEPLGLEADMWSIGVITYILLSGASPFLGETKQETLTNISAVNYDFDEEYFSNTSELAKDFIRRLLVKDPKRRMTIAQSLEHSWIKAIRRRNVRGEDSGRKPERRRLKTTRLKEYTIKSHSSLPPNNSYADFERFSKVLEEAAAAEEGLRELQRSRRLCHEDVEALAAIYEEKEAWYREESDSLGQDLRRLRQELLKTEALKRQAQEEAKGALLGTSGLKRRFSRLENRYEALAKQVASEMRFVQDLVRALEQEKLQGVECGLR
Sequence of UniProt Q96RR4 (whole entry, looked up): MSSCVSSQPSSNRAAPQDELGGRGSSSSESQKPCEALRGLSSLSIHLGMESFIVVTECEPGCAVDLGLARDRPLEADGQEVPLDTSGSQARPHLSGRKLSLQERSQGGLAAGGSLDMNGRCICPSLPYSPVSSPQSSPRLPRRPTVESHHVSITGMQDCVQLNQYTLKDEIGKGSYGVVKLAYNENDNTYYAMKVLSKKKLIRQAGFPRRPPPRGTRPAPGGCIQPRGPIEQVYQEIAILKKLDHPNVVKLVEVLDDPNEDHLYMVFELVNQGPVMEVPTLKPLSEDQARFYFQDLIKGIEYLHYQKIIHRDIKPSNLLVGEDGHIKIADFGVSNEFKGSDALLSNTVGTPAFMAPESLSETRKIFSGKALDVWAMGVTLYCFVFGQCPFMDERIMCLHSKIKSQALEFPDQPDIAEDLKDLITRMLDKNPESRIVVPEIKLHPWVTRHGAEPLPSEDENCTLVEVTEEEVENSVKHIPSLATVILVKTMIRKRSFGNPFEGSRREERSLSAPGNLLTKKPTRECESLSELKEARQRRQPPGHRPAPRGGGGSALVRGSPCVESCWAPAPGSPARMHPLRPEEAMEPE

Set 1
Target: Cyclin-dependent kinase 1, with cyclin A (CDK1, Homo sapiens, UniProt P06493)
Sequence of UniProt P06493 (whole entry, looked up): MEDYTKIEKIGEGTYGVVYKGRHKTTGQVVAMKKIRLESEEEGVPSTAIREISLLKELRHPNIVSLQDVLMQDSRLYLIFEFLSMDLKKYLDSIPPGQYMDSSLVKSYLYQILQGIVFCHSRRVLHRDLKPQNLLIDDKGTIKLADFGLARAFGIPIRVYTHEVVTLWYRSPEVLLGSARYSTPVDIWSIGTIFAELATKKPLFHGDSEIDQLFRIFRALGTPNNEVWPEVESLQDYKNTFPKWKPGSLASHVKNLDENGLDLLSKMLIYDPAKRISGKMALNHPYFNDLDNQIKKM
Effect on: enzyme activity
Action: inhibitor
Concentration: 0.5 µM
Relative to: control
Quantity: remaining activity
Structure (SMILES) = O=C1C(Cl)=C(N2C(=O)CCC2=O)C(=O)c2ccccc21; result = 99.8%
Structure (SMILES) = c1ccc(-c2[nH]ncc2-c2ccnc3ccccc23)nc1; result = 82.7%
Structure (SMILES) = C[C@@H]1CCN(C(=O)CC#N)C[C@@H]1N(C)c1ncnc2[nH]ccc12; result = 95.9%
Structure (SMILES) = O=C1c2ccccc2-[n+]2ccc3c([nH]c4ccccc43)c21; result = 68%
Structure (SMILES) = N#Cc1c(NC(=O)c2cccc3ccccc23)sc2c1CCCC2; result = 92.1%

Set 2
SMILES: O=C(NC[C@@H]1[C@H]2CN(C(=O)OCc3cc(C(F)(F)F)cc(C(F)(F)F)c3)C[C@@H]12)c1ccc2[nH]nnc2c1
Effect on: cell-free assay
Method: competition with immobilised ligand
Concentration: 1 µM
Quantity: remaining binding
target = Ephrin type-A receptor 1 (EPHA1, Homo sapiens, UniProt P21709); result = 100%
target = Serine/threonine-protein kinase WNK4 (WNK4, Homo sapiens, UniProt Q96J92); result = 89%
target = Cyclin-dependent kinase 2 (CDK2, Homo sapiens, UniProt P24941); result = 100%
target = cAMP-dependent protein kinase catalytic subunit PRKX (PRKX, Homo sapiens, UniProt P51817); result = 86%
target = Serine/threonine-protein kinase VRK2 (VRK2, Homo sapiens, UniProt Q86Y07); result = 100%
target = Rho-associated protein kinase 2 (ROCK2, Homo sapiens, UniProt O75116); result = 90%
target = Calcium/calmodulin-dependent protein kinase kinase 2 (CAMKK2, Homo sapiens, UniProt Q96RR4); result = 91%
target = Serine/threonine-protein kinase Nek6 (NEK6, Homo sapiens, UniProt Q9HC98); result = 100%
target = Cyclin-dependent kinase 15 (CDK15, Homo sapiens, UniProt Q96Q40); result = 75%
target = Death-associated protein kinase 3 (DAPK3, Homo sapiens, UniProt O43293); result = 94%
target = Receptor-type tyrosine-protein kinase FLT3 (FLT3, Homo sapiens, UniProt P36888, D835V); result = 100%

Set 3
Structure (SMILES): CC(C)n1cnc(-c2ccc(F)cc2)c1-c1ncc(C(=O)Nc2ccc(N3CCN(C)CC3)cc2)[nH]1
Method: phase 2a trial
Host: idiopathic pulmonary fibrosis patients
Quantity: supraventricular extrasystole patients
setting = all arms, grade 2 emergent event; result = 0%
setting = 30 mg once daily, grade 4 emergent event; result = 0%
setting = 30 mg once daily, grade 5 emergent event; result = 0%
setting = all arms, grade 3 emergent event; result = 0%

Set 4
Host: female C57BL/6 mouse
Medium: plasma
Route: oral
Dose: 10 mg/kg
Time: 7 h
Quantity: concentration
SMILES = CCOC(=O)CN(C(=O)c1ccn2ncc(-c3ccc(C(=O)NC)cc3)c2c1)c1ccc(Cl)cc1; result = 98.5 nM
SMILES = CNC(=O)c1ccc(-c2cnn3ccc(C(=O)N(C[C@H]4CCC(=O)O4)c4ccc(OC(F)(F)F)cc4)cc23)cc1; result = 2.8 nM
SMILES = COC(=O)c1cc(Cl)ccc1N(C)C(=O)c1ccn2ncc(-c3ccc(C(N)=O)cc3)c2c1; result = 10.1 nM
SMILES = CN(C(=O)c1ccn2ncc(-c3ccc(C(N)=O)cc3)c2c1)c1ccc(C#N)cn1; result = 350 nM

Excerpt of the above (set 1):
Structure (SMILES) = C[C@@H]1CCN(C(=O)CC#N)C[C@@H]1N(C)c1ncnc2[nH]ccc12; result = 95.9%
Structure (SMILES) = c1ccc(-c2[nH]ncc2-c2ccnc3ccccc23)nc1; result = 82.7%
Structure (SMILES) = O=C1C(Cl)=C(N2C(=O)CCC2=O)C(=O)c2ccccc21; result = 99.8%
